Assay results pooled from the literature.
Protocols differ between the studies behind these lines. “And” joins repeats or separate records; there may be more than shown. Numbers after ± are the reported error.
Chain of UniProt P08684 (whole entry, looked up): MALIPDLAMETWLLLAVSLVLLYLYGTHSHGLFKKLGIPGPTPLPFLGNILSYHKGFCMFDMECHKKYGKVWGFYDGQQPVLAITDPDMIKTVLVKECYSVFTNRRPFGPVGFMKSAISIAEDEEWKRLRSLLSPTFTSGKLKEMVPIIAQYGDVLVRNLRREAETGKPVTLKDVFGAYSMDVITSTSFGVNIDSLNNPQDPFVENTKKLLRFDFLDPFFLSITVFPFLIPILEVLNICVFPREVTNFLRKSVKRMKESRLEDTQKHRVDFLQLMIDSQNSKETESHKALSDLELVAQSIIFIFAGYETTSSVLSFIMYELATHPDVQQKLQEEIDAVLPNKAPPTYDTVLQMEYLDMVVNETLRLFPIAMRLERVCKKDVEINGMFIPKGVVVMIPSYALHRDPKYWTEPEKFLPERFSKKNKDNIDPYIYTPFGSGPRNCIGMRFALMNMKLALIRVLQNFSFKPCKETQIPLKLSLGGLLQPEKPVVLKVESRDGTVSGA

| Structure (SMILES) | tested on | assay | system | setting | how to read | quantity | value |
| --- | --- | --- | --- | --- | --- | --- | --- |
| C[Si](C)(C)O[Si](C)(C)O[Si](C)(C)C | Oncorhynchus mykiss | IVIVE from S9 data |  | per S9 batch |  | whole-body biotransformation rate constant | 0.086 day⁻¹ and 0.064 day⁻¹ and 0.077 day⁻¹ |
| Cc1cc(Nc2ccc(S(F)(F)(F)(F)F)cc2)n2nc(C(C)(F)F)nc2n1 | Plasmodium vivax | 12-lead Holter ECG | human malaria patients | oral, 400 mg, QTc above 450 ms |  | patients with QTcF above threshold | 0% |
| CC[C@H]1[C@@H](O)[C@@H]2[C@H](CC[C@]3(C)[C@@H]([C@H](C)CCNC(=O)NS(=O)(=O)c4ccc(C(C)(C)C)cc4)CC[C@@H]23)[C@@]2(C)CC[C@@H](O)C[C@@H]12 | Cytochrome P450 3A4 (CYP3A4, Homo sapiens, UniProt P08684) |  | human, plasma | dose not given, added: fluconazole |  | half-life geometric mean | 22.3 h |
| CC(=O)Nc1cccc(-n2c(=O)n(C3CC3)c(=O)c3c(Nc4ccc(I)cc4F)n(C)c(=O)c(C)c32)c1 | COLO 205 | resazurin |  | concentration not given, 72 h, unit not given | relative to: DMSO | viability | 0.318 and 0.215 and 0.561 and 0.189 and 0.213 and 0.328 |
| CC[C@H](CO)N(CCN(N=O)[C@H](CC)CO)N=O | Salmonella typhimurium | mutagenicity, Ames plate incorporation | TA98 | 2500 µg/plate, without S9, methanol |  | revertant colonies per plate | 29 ± 3 |
| CC(=O)OCC1=C[C@@H]2OC(=O)C3=CO[C@@H](O[C@@H]4O[C@H](CO)[C@@H](O)[C@H](O)[C@H]4O)[C@H]1[C@@H]32 | BEAS-2B | enzyme activity, inducer, fluorogenic substrate imaging |  | 10 µM, 24 h | relative to: control | CYP1A1 induction | 1.05 fold |
| Cc1cc(N)c2c(OCC(C)(C)C(=O)NC(C)C)cccc2n1 | Salmonella typhimurium | reverse mutation, plate incorporation | TA98 | 100 µg/plate, with rat liver S9 |  | mean revertant colonies | 15 colonies/plate |
| C[C@H]1CN(C2COC2)CCN1c1ccc(Nc2cc(-c3ccnc(N4CCn5c(cc6c5CC(C)(C)C6)C4=O)c3CO)cn(C)c2=O)nc1 | human CYP3A4/5 |  | human liver microsomes | 1 µM, 60 min, pH 7.4, added: troleandomycin 20 µM, NADPH | relative to: 0 min | remaining compound | 96.3 ± 14.4% |
| C=C(NC(=O)c1nccc(OC)c1O)C(=O)O[C@@H](C)[C@H](OC(=O)C(C)C)[C@@H](Cc1ccccc1)C(=O)O | Pseudokirchneriella subcapitata | growth |  | concentration not given, 72 h, static test |  | NOEC | 10000 µg/L |
| CC(C)(c1ccc(O)cc1)c1ccc(O)cc1 | HepG2 spheroids | flow cytometry, item: phospho-histone H3 |  | 0.1 µM, 96 h | relative to: solvent control | mitotic cells increase | 1.73 fold |
| C[Si]1(C)O[Si](C)(C)O[Si](C)(C)O[Si](C)(C)O[Si](C)(C)O1 | Oncorhynchus mykiss | extrapolated from liver S9 |  | concentration not given, lipid-normalized, total |  | bioconcentration factor | 33000 L/kg lipid |
| O=c1c(O)c(-c2ccccc2)oc2ccccc12 | BEAS-2B | enzyme activity, inducer, fluorogenic substrate imaging |  | 10 µM, 24 h | relative to: control | CYP1A1 induction | 1.45 fold |

Repeated from above:
| Structure (SMILES) | tested on | assay | system | setting | how to read | quantity | value |
| --- | --- | --- | --- | --- | --- | --- | --- |
| Cc1cc(N)c2c(OCC(C)(C)C(=O)NC(C)C)cccc2n1 | Salmonella typhimurium | reverse mutation, plate incorporation | TA98 | 100 µg/plate, with rat liver S9 |  | mean revertant colonies | 15 colonies/plate |
| C[C@H]1CN(C2COC2)CCN1c1ccc(Nc2cc(-c3ccnc(N4CCn5c(cc6c5CC(C)(C)C6)C4=O)c3CO)cn(C)c2=O)nc1 | human CYP3A4/5 |  | human liver microsomes | 1 µM, 60 min, pH 7.4, added: troleandomycin 20 µM, NADPH | relative to: 0 min | remaining compound | 96.3 ± 14.4% |
